Measured values collected from several papers.
Compare with care: the assays were run in different laboratories. “And” joins repeats or separate records; there may be more than shown.
Target: Cytoplasmic tyrosine-protein kinase BMX (BMX, Homo sapiens, UniProt P51813)

| SMILES | test | setting | how to read | quantity | value |
| --- | --- | --- | --- | --- | --- |
| Nc1ncc2c(n1)-c1c([nH]c3ccc(C4=CCOCC4)cc13)CCC2 | binding, competition with immobilised ligand | 1 µM | – | remaining binding | 100% |
| COc1cc(Nc2nc(C)cc(-c3cnn4nc(OC)ccc34)n2)cc(C(F)(F)F)c1 | inhibitor | 1 µM | reference: control | remaining activity | 87% |
| O=C=[N][Ru-4]123([n]4c5ccc(O)cc5c5c6c(c7cc(F)c[n+]1c7c54)C(=O)NC6=O)[S+]1CC[S+]2CC[S+]3CC1 (stereo not drawn) | enzyme activity | 100 nM, human enzyme, together with: 10 µM ATP | reference: untreated | remaining activity | 124% |
| CC(C)=CC1OC(C)(C)C2C=C3C(=O)C(Cl)=CC(O)C3C3C(O)C4OC4C(=O)C132 (stereo not drawn) | cell-free assay, competition with immobilised ligand | 10 µM | – | remaining binding | 85% |
| COCC12C(=O)NC3C4(C(OC)CC1O)C1CC5(O)C(OC)C(O)C(OC(C)=O)(C1C5OC(=O)c1ccccc1)C3(O)C(OC)C24 (stereo not drawn) | kinase activity, inhibitor, ProQinase kinase profiling | 25 µM | reference: control | remaining activity | 97% and 90% |
| CNC(=O)C1CCN(c2cc(C)c(F)cc2NC(=O)c2ccc(-c3cc(O)ccc3C)c(C)c2)CC1 | binding, competition with immobilised ligand | 1 µM | – | remaining binding | 72% |
| Cc1cccc(O[C@H]2CCC[C@@H](C(C)CNCc3ccncc3)C2)c1 (relative stereo) | enzyme activity, inhibitor | 10 µM | – | inhibition | -10% |
| CCn1cc(C(=O)O)c(=O)c2c(N)c(F)c(NC3CCCCC3)cc21 | kinase activity | 0.1 µM, together with: ATP at Km | – | inhibition | 11.7% |
| C[C@H]1CN(C(=O)c2cn(-c3ccnc(N)n3)c3cc(C#CC4(O)CCCCC4)ccc23)CCN1 | enzyme activity, inhibitor, FRET | 1 µM | – | inhibition | 0% |
| NC(=O)[C@@H](O)C[C@H]1CCc2sc3ncnc(O[C@H]4CC[C@H](N5CCOCC5)CC4)c3c21 | enzyme activity, inhibitor | 10 µM | – | inhibition | 21% |
| C=CC(=O)N1CCCC(n2c(=O)c3ncccc3n(Cc3ccc(Oc4ccccc4)cc3)c2=O)C1 (stereo not drawn) | cell-free assay, competition with immobilised ligand | 1 µM | – | remaining binding | 100% |
| Cc1cnc2nc1Nc1cccc(c1)COC/C=C/COCc1cc(ccc1OCCN1CCOCC1)N2 | binding | 0.1 µM | – | remaining binding | 70% |
| C=CC(=O)Nc1cccc(-c2cnc3[nH]cc(C(=O)NC(C)(C)C)c3n2)c1 | kinase activity | 0.1 µM | – | inhibition | 69% and 68% |
| COc1c(Cl)cccc1Nc1c(-c2ccncc2C#C[C@@]2(C)CCCN2C(=O)/C=C/CN(C)C)[nH]c2c1C(=O)NCC2 | binding, competition with immobilised ligand | 3 µM | – | remaining binding | 100% |
| COc1ccc(O)cc1-c1c[nH]c2ncc(-c3cncc(C(=O)N(C)C)c3)cc12 | binding, competition with immobilised ligand | 0.2 µM | – | inhibition | -2.41% |

A few entries again:
| SMILES | test | setting | how to read | quantity | value |
| --- | --- | --- | --- | --- | --- |
| Nc1ncc2c(n1)-c1c([nH]c3ccc(C4=CCOCC4)cc13)CCC2 | binding, competition with immobilised ligand | 1 µM | – | remaining binding | 100% |
